Results collected from several papers.
Parts stem from different laboratories: compare values within a part only.

Sample 1
Target: Protein max, full length (MAX, Homo sapiens, UniProt P61244-2, residues 1-151)
Technique: protein-binding microarray
Molecule type: double-stranded DNA, one strand shown
Sample: in vitro
Tested at: not given
Setting: k-mer, scored over probes, only values ≥0.25
Reading: higher = stronger binding
Strand	E-score
AGAACATG	0.291
CGTGTGAC	0.354
CCACATGG	0.487

Sample 2
Target: Centromere-binding protein 1, full length, N-terminal tag (CBF1, Saccharomyces cerevisiae, UniProt P17106, residues 1-351)
Sequence of UniProt P17106 (whole entry, looked up): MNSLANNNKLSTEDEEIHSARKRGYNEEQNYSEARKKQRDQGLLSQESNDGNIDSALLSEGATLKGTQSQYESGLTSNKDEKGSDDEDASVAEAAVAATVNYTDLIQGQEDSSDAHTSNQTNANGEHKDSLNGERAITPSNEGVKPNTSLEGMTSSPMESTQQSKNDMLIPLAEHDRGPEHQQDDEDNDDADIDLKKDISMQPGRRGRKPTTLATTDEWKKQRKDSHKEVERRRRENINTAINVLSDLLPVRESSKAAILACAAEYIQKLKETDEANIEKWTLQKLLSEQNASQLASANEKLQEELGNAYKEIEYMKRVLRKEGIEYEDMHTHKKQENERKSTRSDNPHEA
Technique: protein-binding microarray
Molecule type: double-stranded DNA, one strand shown
Sample: in vitro
Tested at: 0.8 µM
Setting: whole 60-bp probe, no competitor
Reading: higher = stronger binding
Strand	fluorescence intensity [a.u.]
CTATGTGTTGGCTCTCACCTGCGCTTGCTGCAATTCGTCTTGATTCGCTTGACGCTGCTG	559
GAATTCCTATTTGAGTTCGTGGTGTTAGTATTCTAGGTCTTGATTCGCTTGACGCTGCTG	545
CTATGAGCAAAGCACGCCATCACTAATGGAACCTTCGTCTTGATTCGCTTGACGCTGCTG	538

Further values, each from its own experiment
Substance	target	test	system	conditions	how to read	measurement	result
CAAGGTAC	Histone acetyltransferase KAT6A, both winged helices, GST fusion (KAT6A, Homo sapiens, UniProt Q92794, residues 1-181)	protein binding microarray	double-stranded DNA, one strand shown, in vitro	not given, 8-mer, flanks averaged, mean of 2 arrays, mostly near background	relative to: not given, higher = stronger binding	E-score	-0.104
PhoQ, residues 284 288 289 292 302 303 SCCLKL	PhoP, residues 12 14 15 18 19 FWNTL (Escherichia coli, UniProt P23836)	Sort-seq, refers to: YFP reporter	E. coli	PhoQ-PhoP variant library, with: 10 µM Mg2+	relative to: high Mg2+ state, higher = stronger signaling	fold induction	11.1
GTATTTGA	Histone acetyltransferase KAT6A, winged helix 2, GST fusion (KAT6A, Homo sapiens, UniProt Q92794, residues 85-181)	protein binding microarray	double-stranded DNA, one strand shown, in vitro	not given, 8-mer, flanks averaged, mean of 2 arrays, mostly near background	relative to: not given, higher = stronger binding	E-score	-0.0616
